Published values gathered from unrelated publications.
Parts stem from different laboratories: compare values within a part only.
UniProt O75676, sequence (whole entry, looked up): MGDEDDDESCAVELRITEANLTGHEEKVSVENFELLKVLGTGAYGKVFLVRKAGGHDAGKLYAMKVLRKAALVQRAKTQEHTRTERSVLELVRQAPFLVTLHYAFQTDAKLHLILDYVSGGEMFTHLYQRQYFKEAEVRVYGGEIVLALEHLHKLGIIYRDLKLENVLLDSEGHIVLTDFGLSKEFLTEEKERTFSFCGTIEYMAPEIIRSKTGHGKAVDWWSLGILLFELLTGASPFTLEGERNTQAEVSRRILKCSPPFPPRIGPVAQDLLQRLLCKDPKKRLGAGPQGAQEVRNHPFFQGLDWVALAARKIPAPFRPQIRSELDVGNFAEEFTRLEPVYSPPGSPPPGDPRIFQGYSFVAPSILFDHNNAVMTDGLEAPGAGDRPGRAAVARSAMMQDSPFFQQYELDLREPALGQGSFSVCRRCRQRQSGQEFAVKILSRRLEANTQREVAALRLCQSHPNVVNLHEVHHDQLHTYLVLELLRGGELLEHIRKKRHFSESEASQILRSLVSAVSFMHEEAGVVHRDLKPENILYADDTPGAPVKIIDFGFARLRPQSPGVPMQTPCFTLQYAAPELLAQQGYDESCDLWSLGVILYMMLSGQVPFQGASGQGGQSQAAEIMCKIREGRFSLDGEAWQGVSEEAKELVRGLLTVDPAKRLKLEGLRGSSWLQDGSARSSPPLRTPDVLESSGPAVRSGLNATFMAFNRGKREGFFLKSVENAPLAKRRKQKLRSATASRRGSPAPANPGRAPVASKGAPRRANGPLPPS
UniProt Q96L34, sequence (whole entry, looked up): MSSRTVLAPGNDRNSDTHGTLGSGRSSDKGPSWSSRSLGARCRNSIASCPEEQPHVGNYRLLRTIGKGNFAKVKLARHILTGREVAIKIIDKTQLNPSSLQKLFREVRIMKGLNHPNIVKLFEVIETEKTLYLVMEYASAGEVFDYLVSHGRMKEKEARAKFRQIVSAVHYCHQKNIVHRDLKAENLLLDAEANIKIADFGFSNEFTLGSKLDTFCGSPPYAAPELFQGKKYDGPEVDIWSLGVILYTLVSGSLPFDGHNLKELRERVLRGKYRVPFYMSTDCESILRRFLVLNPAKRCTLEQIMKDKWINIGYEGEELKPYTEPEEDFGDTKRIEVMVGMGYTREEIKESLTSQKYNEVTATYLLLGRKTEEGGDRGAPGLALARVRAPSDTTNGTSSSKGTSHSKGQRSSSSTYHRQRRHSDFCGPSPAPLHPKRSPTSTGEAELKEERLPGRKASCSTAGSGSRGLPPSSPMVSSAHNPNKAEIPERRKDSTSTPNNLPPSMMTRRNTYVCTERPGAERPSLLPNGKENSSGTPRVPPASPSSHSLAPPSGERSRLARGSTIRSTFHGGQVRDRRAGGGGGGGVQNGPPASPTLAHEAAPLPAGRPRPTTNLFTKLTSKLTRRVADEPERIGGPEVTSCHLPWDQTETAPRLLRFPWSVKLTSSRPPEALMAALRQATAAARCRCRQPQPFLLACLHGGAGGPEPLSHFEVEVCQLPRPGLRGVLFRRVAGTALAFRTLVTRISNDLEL
UniProt P31751, sequence (whole entry, looked up): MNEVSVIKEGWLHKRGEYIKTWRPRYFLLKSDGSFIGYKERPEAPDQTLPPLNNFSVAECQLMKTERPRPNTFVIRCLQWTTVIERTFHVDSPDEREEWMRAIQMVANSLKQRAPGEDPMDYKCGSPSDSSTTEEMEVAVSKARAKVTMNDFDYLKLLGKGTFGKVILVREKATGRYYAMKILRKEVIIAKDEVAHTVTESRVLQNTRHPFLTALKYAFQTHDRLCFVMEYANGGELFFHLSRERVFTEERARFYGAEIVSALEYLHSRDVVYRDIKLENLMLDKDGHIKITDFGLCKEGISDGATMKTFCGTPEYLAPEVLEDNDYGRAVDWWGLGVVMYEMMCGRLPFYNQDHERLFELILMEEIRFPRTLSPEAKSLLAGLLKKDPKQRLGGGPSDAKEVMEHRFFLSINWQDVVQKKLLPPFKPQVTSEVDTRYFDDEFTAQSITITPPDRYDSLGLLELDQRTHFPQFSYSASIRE
UniProt Q15759, sequence (whole entry, looked up): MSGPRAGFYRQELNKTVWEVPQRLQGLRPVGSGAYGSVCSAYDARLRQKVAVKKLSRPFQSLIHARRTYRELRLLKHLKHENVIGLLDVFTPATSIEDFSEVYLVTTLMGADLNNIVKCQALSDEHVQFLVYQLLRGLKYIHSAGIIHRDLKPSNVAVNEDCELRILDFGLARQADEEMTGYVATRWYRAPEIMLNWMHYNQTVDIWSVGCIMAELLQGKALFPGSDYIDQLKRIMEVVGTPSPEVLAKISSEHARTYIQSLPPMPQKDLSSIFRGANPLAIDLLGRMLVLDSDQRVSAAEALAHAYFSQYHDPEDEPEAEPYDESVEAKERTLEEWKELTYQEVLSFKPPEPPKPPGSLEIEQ
UniProt Q86UE8, sequence (whole entry, looked up): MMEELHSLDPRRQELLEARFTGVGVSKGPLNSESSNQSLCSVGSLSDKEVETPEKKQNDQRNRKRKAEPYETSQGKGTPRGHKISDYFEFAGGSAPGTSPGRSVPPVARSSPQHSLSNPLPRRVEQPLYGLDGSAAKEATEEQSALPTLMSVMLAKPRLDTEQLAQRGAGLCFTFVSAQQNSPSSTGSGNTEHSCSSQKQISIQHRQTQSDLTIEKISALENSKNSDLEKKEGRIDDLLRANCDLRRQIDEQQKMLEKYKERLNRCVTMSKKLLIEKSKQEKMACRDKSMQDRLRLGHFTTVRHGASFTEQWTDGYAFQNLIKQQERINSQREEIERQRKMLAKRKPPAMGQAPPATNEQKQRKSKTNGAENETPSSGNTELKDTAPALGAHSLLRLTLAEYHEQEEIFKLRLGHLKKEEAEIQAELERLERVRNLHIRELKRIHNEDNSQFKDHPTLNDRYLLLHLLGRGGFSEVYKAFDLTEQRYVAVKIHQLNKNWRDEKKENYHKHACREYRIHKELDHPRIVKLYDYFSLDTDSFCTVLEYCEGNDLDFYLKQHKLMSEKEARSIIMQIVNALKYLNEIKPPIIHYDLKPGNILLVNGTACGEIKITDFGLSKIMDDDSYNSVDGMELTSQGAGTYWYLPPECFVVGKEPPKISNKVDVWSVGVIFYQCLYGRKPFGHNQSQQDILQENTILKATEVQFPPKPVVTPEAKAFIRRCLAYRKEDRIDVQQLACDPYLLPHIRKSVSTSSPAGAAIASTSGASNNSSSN
UniProt Q9UKE5, sequence (whole entry, looked up): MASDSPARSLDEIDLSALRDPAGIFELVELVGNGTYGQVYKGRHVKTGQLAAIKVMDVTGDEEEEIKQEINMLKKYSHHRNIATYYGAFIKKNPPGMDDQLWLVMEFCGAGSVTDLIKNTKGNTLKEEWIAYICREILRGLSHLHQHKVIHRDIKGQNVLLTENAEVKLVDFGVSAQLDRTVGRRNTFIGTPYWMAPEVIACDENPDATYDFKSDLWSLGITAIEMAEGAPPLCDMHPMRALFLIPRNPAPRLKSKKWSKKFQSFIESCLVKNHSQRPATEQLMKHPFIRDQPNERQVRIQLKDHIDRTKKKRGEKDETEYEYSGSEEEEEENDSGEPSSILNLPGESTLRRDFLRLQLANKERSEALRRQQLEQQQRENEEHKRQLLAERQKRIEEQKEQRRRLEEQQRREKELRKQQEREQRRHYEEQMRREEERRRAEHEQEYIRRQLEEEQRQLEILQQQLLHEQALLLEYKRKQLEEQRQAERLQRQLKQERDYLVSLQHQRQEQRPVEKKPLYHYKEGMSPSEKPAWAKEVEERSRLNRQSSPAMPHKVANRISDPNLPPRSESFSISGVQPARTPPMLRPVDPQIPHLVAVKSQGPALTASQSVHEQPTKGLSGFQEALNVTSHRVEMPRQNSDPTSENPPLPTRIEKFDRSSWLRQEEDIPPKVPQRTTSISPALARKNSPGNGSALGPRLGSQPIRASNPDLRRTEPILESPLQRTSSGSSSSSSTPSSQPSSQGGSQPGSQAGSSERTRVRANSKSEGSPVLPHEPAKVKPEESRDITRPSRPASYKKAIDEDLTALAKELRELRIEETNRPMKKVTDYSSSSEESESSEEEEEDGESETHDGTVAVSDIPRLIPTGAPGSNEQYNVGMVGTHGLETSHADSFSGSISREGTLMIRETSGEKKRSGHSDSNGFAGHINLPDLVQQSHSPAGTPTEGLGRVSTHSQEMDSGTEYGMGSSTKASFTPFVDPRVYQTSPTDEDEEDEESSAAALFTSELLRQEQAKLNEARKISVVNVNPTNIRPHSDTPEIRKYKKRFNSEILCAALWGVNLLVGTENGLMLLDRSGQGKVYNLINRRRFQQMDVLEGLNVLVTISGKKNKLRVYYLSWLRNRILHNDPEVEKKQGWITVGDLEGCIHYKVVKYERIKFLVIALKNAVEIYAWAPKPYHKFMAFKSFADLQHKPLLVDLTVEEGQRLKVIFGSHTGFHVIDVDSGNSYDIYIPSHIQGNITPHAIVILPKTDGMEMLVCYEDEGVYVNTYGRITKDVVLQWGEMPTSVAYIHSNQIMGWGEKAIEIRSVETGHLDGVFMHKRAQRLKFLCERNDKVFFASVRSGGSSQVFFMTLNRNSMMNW

Set 1 — method: aptamer microarray, sandwich; form: DNA with 2'F-ANA; matrix: in vitro; concentration: 200 nM; added: Cy3 exosite-II aptamer, 400 nM; reading: higher = stronger binding; oligonucleotide: GGTTGGTGTGGTTGG
Target: Prothrombin, mature alpha-thrombin (F2, Homo sapiens, UniProt P00734)
Setting: whole 15-mer aptamer, many near background
`2'F-ANA at 2 3 5 6 7 8 9 10 12 14 15` — result for “mean fluorescence intensity”: 52.2 a.u.
`2'F-ANA at 5 6 11 13 14`: “mean fluorescence intensity” 45 a.u.
For `2'F-ANA at 1 7 10 11 12 13 14`, “mean fluorescence intensity” read 46.6 a.u.
`2'F-ANA at 2 5 6 7 10 12 13 15` — result for “mean fluorescence intensity”: 46.7 a.u.
`2'F-ANA at 1 2 3 4 5 6 7 9 10 11 13 14 15`: “mean fluorescence intensity” 62.1 a.u.
For `2'F-ANA at 2 6 7 8 9 10 11 13 14`, “mean fluorescence intensity” read 74.6 a.u.
`2'F-ANA at 1 7 8 10 11 12` — result for “mean fluorescence intensity”: 71.3 a.u.
`2'F-ANA at 2 3 4 6 7 10 11 12` — result for “mean fluorescence intensity”: 285 a.u.

Set 2 — effect on: cell-free assay; method: competition with immobilised ligand; concentration: 1 µM
Compound: CCOCCn1cc(C(=O)Nc2ccc(-n3nc(-c4cccnc4)cc3C(F)(F)F)cn2)ccc1=O
It gave 100% for remaining binding (TNIK (Homo sapiens, UniProt Q9UKE5)).
It gave 80% for remaining binding (CDKL1 (Homo sapiens, UniProt Q00532)).
For PIK3CA (Homo sapiens, UniProt P42336, H1047Y): remaining binding read 100%.
It gave 80% for remaining binding (Ribosomal protein S6 kinase alpha-4, C-terminal kinase domain (RPS6KA4, Homo sapiens, UniProt O75676)).

Set 3 — method: RNA Bind-n-Seq; form: RNA; matrix: in vitro; concentration: 1 µM; setting: whole 134-nt RNA, ends assumed; added: 150 mM KCl; reference: input library; reading: higher = stronger binding
Target: Ras GTPase-activating protein-binding protein 1, RRM domain (G3BP1, Homo sapiens, UniProt Q13283)
UniProt Q13283, sequence (whole entry, looked up): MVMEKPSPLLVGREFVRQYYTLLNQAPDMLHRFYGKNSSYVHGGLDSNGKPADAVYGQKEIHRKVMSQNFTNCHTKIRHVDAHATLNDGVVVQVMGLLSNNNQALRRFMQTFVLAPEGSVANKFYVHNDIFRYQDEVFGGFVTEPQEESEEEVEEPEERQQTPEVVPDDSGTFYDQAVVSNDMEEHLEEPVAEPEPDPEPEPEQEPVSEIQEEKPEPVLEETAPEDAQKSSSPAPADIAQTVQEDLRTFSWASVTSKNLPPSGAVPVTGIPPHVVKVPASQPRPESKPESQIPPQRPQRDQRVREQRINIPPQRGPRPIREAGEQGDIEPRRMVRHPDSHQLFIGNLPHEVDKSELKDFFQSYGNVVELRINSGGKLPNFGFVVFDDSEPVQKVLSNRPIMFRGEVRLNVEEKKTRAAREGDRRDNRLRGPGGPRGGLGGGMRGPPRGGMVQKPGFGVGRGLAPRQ
`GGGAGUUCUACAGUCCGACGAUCCAAGUCCUGUGCUACACAUCGUAUGUACCGAAUCGGGUUUGGGUUUGGUUUGGGGAAAGUAUUAUGUUACGCCGUUCGGAUCUGCACUUCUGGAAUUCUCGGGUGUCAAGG` gave a log2 enrichment of -0.108.
With `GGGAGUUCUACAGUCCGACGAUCUGUGCUACACAUCGUAUGUACCGAAUCGGUUUUUUUGGGGUUUUUUUGGGGUUUUUUUGGGGAAAGUAUUAUGUUACGCCGUUCGGAUCUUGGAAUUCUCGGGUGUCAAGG` the log2 enrichment was -0.0926.
`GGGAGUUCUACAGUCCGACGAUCGUCCUGUGCUACACAUCGUAUGUACCGAAUCGGUUUUUUGGGUUUUUUGGGUUUUUUGGAAAGUAUUAUGUUACGCCGUUCGGAUCUGCAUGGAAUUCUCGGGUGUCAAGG` gave a log2 enrichment of -0.156.
With `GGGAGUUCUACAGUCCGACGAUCCCUGUGCUACACAUCGUAUGUACCGAAUCGGGGUUUUUGGGGUUUUUUUGGGGAAAGGGGAAAGUAUUAUGUUACGCCGUUCGGAUCUGCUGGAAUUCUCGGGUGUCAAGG` the log2 enrichment was 0.691.
With `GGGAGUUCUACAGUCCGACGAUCUAACUUUAGAGGAAGAUCUGAUGGAUAUGGCAGUGGACGUGGAUUUGGGGAUGGCUAUAAUGGGUAUGGAGGAGGACCUGGAGGUGGCAAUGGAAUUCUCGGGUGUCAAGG` the log2 enrichment was -0.862.
`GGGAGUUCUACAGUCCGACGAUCUCCUGUGCUACACAUCGUAUGUACCGAAUCGGAAAAAAAGGAAAAAAAGGAAAAAAAGGAAAGUAUUAUGUUACGCCGUUCGGAUCUGCAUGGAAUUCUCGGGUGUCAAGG` has a log2 enrichment of 0.131.
The log2 enrichment of `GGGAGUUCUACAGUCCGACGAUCCAAGUCCUGUGCUACACAUCGUAUGUACCGAAUCGGGGAGGGGAGGGGAAAGGGGAAAGUAUUAUGUUACGCCGUUCGGAUCUGCACUUCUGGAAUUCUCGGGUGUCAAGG` is reported as 1.14.
The log2 enrichment of `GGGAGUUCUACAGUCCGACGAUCACCAUGCAGGUGGGCAUCUUUGGGAAGUGGGGCAAGGGGGGGAUAGGGAGGGGGGUAACACUUUGGGAACAUGUGGUCCCAGGUCGUUUCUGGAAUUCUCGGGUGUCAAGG` is reported as 0.752.

Set 4 — effect on: enzyme activity; mode: inhibitor; concentration: 0.5 µM; reference: control
SMILES: O=c1c(-c2ccc(F)cc2)c(-c2ccncc2)[nH]n1-c1ccc(Cl)cc1
For Cyclin-dependent kinase 9, with cyclin K (CDK9, Homo sapiens, UniProt P50750): remaining activity read 93.4%.
For CLK3 (Homo sapiens, UniProt P49761): remaining activity read 88.7%.
It gave 109% for remaining activity (TLK2 (Homo sapiens, UniProt Q86UE8)).
The remaining activity was 11.2% (MAPK14 (Homo sapiens, UniProt Q16539)).
It gave 90.7% for remaining activity (Myosin-IIIb (MYO3B, Homo sapiens, UniProt Q8WXR4)).
It gave 90.6% for remaining activity (DDR2 (Homo sapiens, UniProt Q16832)).
It gave 103% for remaining activity (RPS6KA4 (Homo sapiens, UniProt O75676)).
The remaining activity was 97.8% (AKT2 (Homo sapiens, UniProt P31751)).
MARK4 (Homo sapiens, UniProt Q96L34) — remaining activity: 80%.
It gave 97.9% for remaining activity (GRK4 (Homo sapiens, UniProt P32298)).
For MAPK11 (Homo sapiens, UniProt Q15759): remaining activity read 55.9%.
It gave 100% for remaining activity (NEK3 (Homo sapiens, UniProt P51956)).
PAK3 (Homo sapiens, UniProt O75914) — remaining activity: 98.3%.
KDR (Homo sapiens, UniProt P35968) — remaining activity: 90.6%.

Excerpt of the above (set 1):
`2'F-ANA at 5 6 11 13 14`: “mean fluorescence intensity” 45 a.u.
For `2'F-ANA at 1 7 10 11 12 13 14`, “mean fluorescence intensity” read 46.6 a.u.
`2'F-ANA at 2 5 6 7 10 12 13 15` — result for “mean fluorescence intensity”: 46.7 a.u.
`2'F-ANA at 1 2 3 4 5 6 7 9 10 11 13 14 15`: “mean fluorescence intensity” 62.1 a.u.
